Assay results gathered from unrelated publications.
Each numbered part is a random draw from the data of one study; scales do not carry over between parts. Changes are numbered by the printed parent chain.

Block 1 — target: CCNF, cyclin fold, Cln2 fusion (human); method: yeast growth competition, sequencing; medium: yeast; setting: strong parent motif; baseline: not given; reading: higher = stronger binding
Parent: RBL2 docking peptide (human); STTRRRLFVENDS; partner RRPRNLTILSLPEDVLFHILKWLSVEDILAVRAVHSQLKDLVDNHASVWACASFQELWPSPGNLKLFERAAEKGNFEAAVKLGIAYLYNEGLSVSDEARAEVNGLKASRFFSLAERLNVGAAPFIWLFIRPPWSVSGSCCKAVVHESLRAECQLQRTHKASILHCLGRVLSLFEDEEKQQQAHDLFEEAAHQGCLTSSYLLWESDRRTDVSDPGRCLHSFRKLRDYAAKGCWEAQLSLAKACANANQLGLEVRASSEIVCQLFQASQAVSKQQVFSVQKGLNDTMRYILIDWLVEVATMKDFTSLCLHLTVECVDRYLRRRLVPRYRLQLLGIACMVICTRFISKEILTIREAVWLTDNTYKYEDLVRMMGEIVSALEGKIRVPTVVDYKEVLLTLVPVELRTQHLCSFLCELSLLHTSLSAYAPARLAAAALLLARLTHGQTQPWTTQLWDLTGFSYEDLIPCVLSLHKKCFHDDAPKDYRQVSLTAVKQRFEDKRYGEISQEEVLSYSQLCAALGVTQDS
| Variant | normalised enrichment score |
| --- | --- |
| STTRRRLFVENDH [S13H] | 8.87 |
| STTRRRLFRENDS [V9R] | 9.57 |
| STTRRRLFVENDP [S13P] | 9.29 |
| STTRRRLFVENHS [D12H] | 7.79 |
| STMRRRLFVENDS [T3M] | 4.12 |
| SFTRRRLFVENDS [T2F] | 8.07 |
| ATTRRRLFVENDS [S1A] | 7.07 |
| SKTRRRLFVENDS [T2K] | 11.2 |
| STTRRSLFVENDS [R6S] | 4.06 |
| PTTRRRLFVENDS [S1P] | 8.43 |
| STTRRRLFVENPS [D12P] | 9.46 |
| STTRRRLEVENDS [F8E] | 2.22 |
| STTRRMLFVENDS [R6M] | 6.12 |
| STTRRRLFVENRS [D12R] | 8.36 |
| STSRRRLFVENDS [T3S] | 4.24 |
| STTRRRLFVWNDS [E10W] | 7.45 |

Block 2 — method: protein-binding microarray; molecule type: double-stranded DNA, one strand shown; medium: in vitro; tested at: 2200 nM top; setting: 60-bp whole probe; added: salmon DNA 0.4 mg/ml; baseline: random background probes; reading: higher = stronger binding; shared flanks, not repeated: GCCTAGCAC … GTCTTGATTCGCTTGACGCTGCTG
Target: Interferon regulatory factor 7, full length, phosphomimetic (IRF7, Homo sapiens, UniProt Q92985, residues 1-503, S471D/S472D/S475D/S476D/S477D/S483D/S484D/S487D)
Target sequence (chain): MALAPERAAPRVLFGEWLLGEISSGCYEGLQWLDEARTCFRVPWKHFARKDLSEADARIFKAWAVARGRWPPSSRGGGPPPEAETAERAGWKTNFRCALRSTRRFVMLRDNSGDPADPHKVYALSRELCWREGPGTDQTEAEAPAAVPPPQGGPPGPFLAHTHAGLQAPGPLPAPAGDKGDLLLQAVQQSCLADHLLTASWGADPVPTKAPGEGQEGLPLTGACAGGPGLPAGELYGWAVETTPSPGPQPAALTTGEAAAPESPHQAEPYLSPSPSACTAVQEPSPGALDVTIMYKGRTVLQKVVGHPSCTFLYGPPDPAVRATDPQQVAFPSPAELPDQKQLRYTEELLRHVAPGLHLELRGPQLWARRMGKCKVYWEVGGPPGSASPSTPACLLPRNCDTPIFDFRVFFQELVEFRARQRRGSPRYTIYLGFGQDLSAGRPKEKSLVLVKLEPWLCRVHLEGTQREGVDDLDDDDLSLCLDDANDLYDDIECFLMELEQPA
| Sequence | fitted relative affinity |
| --- | --- |
| GACGGTTCCGGTTTCGGGTCGTGCTAG | 8.59 z-score |
| GACGGTATCGGTTTCGCGACGTGCTAG | 2.47 z-score |
| TTAGGTTTCGGGACTGGGTTTGTGCTA | 3.31 z-score |
| GACGGTACCGACTATCGGGACGTGCTA | -0.581 z-score |
| GACGGTTTCGTTCTCCTGACGTGCTAG | 7.86 z-score |
| TTAGGTATGCTTCTCCTTTAGTGCTAG | 1.07 z-score |
| TTAGGACTGCTAGTGCTTTAGTGCTAG | -0.4 z-score |
| GACGGTATCGTGTTTCGGGACGTGCTA | 1.77 z-score |
| TTAGACCTGAGTCTCGATTAGTGCTAG | -0.0699 z-score |
| GACGGTATCCTTATCCTTACGTGCTAG | 1.17 z-score |
| GACGGACTGGGTATCGGTACGTGCTAG | -0.363 z-score |
| TTAGAACTGAGACTCGATTAGTGCTAG | -0.333 z-score |
| TCAATTTTTACCCTCCTACTGTGCTAG | 1.9 z-score |
| GGTCTTTCCACTTTCTTTTGGTGCTAG | 4.61 z-score |
| TTAGCTTTCGGGTATCGGTTAGTGCTA | 6.61 z-score |
| TCATCTCTGCTTGTGTCACTGTGCTAG | 1.67 z-score |
| TTAGGACTGCTTCTCCTTAAGTGCTAG | 0.506 z-score |
| GACGATATAGGGTTTCGAGACGTGCTA | 1.01 z-score |
| TTAGGTATCCTTCTCCTCTAGTGCTAG | 1.16 z-score |
| TTAGGACTGGACAGTGGGTTAGTGCTA | -0.538 z-score |
| GACGGTTTCGAATATCGGGACGTGCTA | 2.17 z-score |
| GACGGACTGCCACTGCTGACGTGCTAG | -0.358 z-score |
| TTAGGTATCTACTTTCGGTTAGTGCTA | 9.39 z-score |

Block 3 — method: RNA Bind-n-Seq; molecule type: RNA; medium: in vitro; tested at: not given; baseline: input RNA pool; reading: higher = stronger binding
Target: RING finger protein unkempt homolog, zinc fingers 1-6, GST-SBP tag (UNK, Homo sapiens, UniProt Q9C0B0, residues 30-357)
Setting: RNA with constant flanks, human and mouse sites, ends assumed
Target sequence (chain): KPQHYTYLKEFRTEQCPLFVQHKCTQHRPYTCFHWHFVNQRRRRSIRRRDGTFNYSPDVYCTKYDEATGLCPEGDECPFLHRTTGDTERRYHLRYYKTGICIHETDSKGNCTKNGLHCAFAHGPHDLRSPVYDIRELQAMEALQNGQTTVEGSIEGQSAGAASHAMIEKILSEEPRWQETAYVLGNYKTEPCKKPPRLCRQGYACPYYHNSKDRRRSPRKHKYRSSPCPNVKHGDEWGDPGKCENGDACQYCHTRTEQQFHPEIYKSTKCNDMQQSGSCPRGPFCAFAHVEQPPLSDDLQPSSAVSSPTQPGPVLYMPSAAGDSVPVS
| Sequence | bound/input enrichment |
| --- | --- |
| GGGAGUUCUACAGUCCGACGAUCGUUUCUUCUUCUGGACAGAUAAGGGUACAUUUUUGUGCUGAUAAAGUGAAUGCUGCAAGGGGAUUUAAUGCUACUUACCAAGUAGAUGGGUUCUGUUUGCCAUGGGAAAUACCCUGUGGACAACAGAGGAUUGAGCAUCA | 0.27 ratio |
| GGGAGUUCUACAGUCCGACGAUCAAUUCCAAGGGCUACACCAAGUCCAUUGAUAUUUGGUCUGUAGGCUGCAUUCUGGCAGAAAUGCUUUCUAACAGGCCCAUCUUUCCAGGGAAGCAUUAUCUUGACCAGCUGAACCACAUUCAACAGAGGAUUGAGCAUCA | 0.113 ratio |
| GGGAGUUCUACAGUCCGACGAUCUACUGUCAAGGACAGUCUUUUCUUGCUGCUGUACUACUGUUGCAUAUGCCAGAGGAGCAAGCAUUCUGUGUUUUGGUGACUAUUAUGUAUGGUUAUAAAUUGAGAGACUUAUACAGAAACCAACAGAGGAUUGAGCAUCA | 0.244 ratio |
| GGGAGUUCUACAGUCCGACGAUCGGAAACGAAUGAGGAACCACCUCCUCCUGCUGUUCAAGUACAGGGGCCUGGUGCGCAAAGGGAAGAAAAGCAAAAGACGAAAAUGGCUAAAUUUAAGAUCCGUCCAGCCACUGCCUCUGACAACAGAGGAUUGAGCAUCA | 0.108 ratio |
| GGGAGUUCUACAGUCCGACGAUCGUCAACCGUGUUACCAUACUGUGUGACAAAUUUAGUGGCCAUCCCAAAGGGUUUGCGUAUAUAGAGUUCUCAGACAAAGAGUCAGUGAGGACUUCCUUGGCCUUAGAUGAGUCCCUAUUUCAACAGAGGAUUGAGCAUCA | 0.518 ratio |
| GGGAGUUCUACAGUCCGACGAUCUGUGUUAUUCGUUGUUUAGUGAAGAAGAGGGCUCUUAUUGCAGGAGGUGGUGCUCCAGAAAUAGAGUUGGCCCUACGAUUAACUGAAUAUUCACGAACACUGAGUGGUAUGGAAUCCUACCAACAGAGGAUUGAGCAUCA | 0.0872 ratio |
| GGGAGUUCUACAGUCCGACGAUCCUCUCCACGGAAAAUUUCCAGAUCAAACAGGAUUCCUCUACCGGCUCGUACUCCAUCAAUUUCGUUCAAAAUCCAAAUAAUAACAGAUAACAAAGAUAACAAAAGCUUUACAAGCUGACUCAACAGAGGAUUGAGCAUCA | 0.594 ratio |
| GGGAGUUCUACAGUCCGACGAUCAUUUCAAAAGGAAAUCGGUAGAGGUGCCAGGUAUUGCAGAAAUAGUUGCUAUACUGAGAUUUGUUUUCGGUUUUUACCUUGGCUUUUUUCUUAACUUUAACUUGCAAAGGUUUCAUCUUGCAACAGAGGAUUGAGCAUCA | 0.187 ratio |
| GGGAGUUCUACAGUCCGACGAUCCCAGAAUCAAUGGGGUUUAUCAUUUAUAAAUGAGCCCAGUGCUGGCCCAGAGACUGUUAUUGGAAAGUCAUCAGAUCAUAAAGUGAUGGAAGUGACAUUUCAAGGAGAAUAUCCUGCCACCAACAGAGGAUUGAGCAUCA | 0.146 ratio |
| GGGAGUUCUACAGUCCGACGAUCACUUAACAUUGAAAAAGCAUAUGGUAAUGGUGGUAUCUCUGCAGCCUCACCGACCCAGGCACUGUCAACAGGUGCUGCCACACAUUCCUGGUCUCCAGUGCCCUCCCUGUCUCUUACAGGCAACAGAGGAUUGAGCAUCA | 0.174 ratio |
| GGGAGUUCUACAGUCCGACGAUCAAUGCCAAAGGUUUGGCUGGAAUAUCAGGAGAGAGGAUUUGGGUAGAACUGAAGAAAAUUCUUACUGGUGACCAUGUAAACCAUUUGAUCCACCUGAUCUAUGAUCUUGGUGUGGCUCCUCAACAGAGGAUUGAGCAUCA | 0.0852 ratio |

Block 4 — method: aptamer microarray, sandwich; molecule type: DNA with 2'F-ANA; medium: in vitro; tested at: 200 nM; added: Cy3 exosite-II aptamer, 400 nM; reading: higher = stronger binding; sequence: GGTTGGTGTGGTTGG
Target: Prothrombin, mature alpha-thrombin (F2, Homo sapiens, UniProt P00734)
Setting: whole 15-mer aptamer, many near background
| Modification | mean fluorescence intensity |
| --- | --- |
| 2'F-ANA at 4 5 7 8 9 13 15 | 53 a.u. |
| 2'F-ANA at 3 4 8 10 12 13 14 | 461 a.u. |
| 2'F-ANA at 1 2 4 5 7 8 10 11 12 13 | 51.7 a.u. |
| 2'F-ANA at 1 2 4 6 8 10 15 | 50.3 a.u. |
| 2'F-ANA at 2 3 4 5 6 9 12 13 14 | 49.7 a.u. |
| 2'F-ANA at 1 3 4 5 6 8 11 12 15 | 95.2 a.u. |
| 2'F-ANA at 1 2 3 6 7 9 10 12 13 14 15 | 54.6 a.u. |
| 2'F-ANA at 1 2 3 5 10 11 12 | 50 a.u. |
| 2'F-ANA at 1 3 5 7 8 9 10 12 14 15 | 46.2 a.u. |
| 2'F-ANA at 3 5 8 9 11 12 15 | 197 a.u. |
| 2'F-ANA at 1 2 3 5 7 8 9 10 11 12 13 14 15 | 63.4 a.u. |
| 2'F-ANA at 1 5 6 12 13 | 69.8 a.u. |
| 2'F-ANA at 3 5 6 11 13 14 | 59.7 a.u. |
| 2'F-ANA at 1 2 3 4 6 10 14 | 45.9 a.u. |
| 2'F-ANA at 1 4 7 10 13 14 | 136 a.u. |
| 2'F-ANA at 1 2 5 6 7 13 | 49.6 a.u. |
| 2'F-ANA at 2 3 5 9 10 11 13 15 | 49.6 a.u. |
| 2'F-ANA at 4 6 8 10 12 14 | 55.3 a.u. |
| 2'F-ANA at 1 2 5 7 12 13 14 | 94.9 a.u. |
| 2'F-ANA at 1 3 4 5 11 13 14 15 | 48 a.u. |
| 2'F-ANA at 1 3 4 6 8 11 12 13 14 15 | 72.6 a.u. |
| 2'F-ANA at 2 4 6 7 10 11 12 13 14 | 62.4 a.u. |
| 2'F-ANA at 1 3 5 7 9 10 12 13 14 15 | 55.1 a.u. |
| 2'F-ANA at 3 6 7 8 10 12 13 | 554 a.u. |

Some of these lines once more (block 1):
| Variant | normalised enrichment score |
| --- | --- |
| SKTRRRLFVENDS [T2K] | 11.2 |
| STTRRSLFVENDS [R6S] | 4.06 |
| PTTRRRLFVENDS [S1P] | 8.43 |
| STTRRRLFVENPS [D12P] | 9.46 |
